Measured values from different studies.
Protocols differ between the studies behind these lines.
ESR2: Estrogen receptor beta (ESR2, Homo sapiens, UniProt Q92731)
Chain of UniProt Q92731 (whole entry, looked up): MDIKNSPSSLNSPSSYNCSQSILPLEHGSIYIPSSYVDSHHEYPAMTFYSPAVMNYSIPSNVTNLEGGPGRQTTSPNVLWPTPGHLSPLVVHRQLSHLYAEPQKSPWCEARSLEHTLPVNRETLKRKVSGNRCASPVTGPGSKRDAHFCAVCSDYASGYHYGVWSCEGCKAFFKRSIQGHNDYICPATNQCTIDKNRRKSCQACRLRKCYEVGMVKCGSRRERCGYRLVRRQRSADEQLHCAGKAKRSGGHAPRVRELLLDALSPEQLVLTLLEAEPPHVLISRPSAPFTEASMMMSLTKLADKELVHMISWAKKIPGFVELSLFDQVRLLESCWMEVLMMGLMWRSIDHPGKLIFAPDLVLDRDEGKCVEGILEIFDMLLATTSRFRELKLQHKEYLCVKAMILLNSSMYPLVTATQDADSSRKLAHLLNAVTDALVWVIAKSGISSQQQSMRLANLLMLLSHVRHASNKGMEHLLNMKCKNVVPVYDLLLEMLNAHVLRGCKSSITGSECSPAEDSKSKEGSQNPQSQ

Compound = CC1=C(Cn2cc(CN)nn2)C(=O)c2ccccc2C1=O; target or system = Schistosoma mansoni; test system = adult worms; setting = 10 µM, 72 h; endpoint = killing; result = 45.4%
Compound = CCOc1nc2cccc(C(=O)O)c2n1Cc1ccc(-c2ccccc2-c2nnn[nH]2)cc1; target or system = Nedd8-cullin1 interaction; test = neddylation, AlphaScreen; setting = 100 µM; endpoint = inhibition; result = 35.4%
Compound = CC1=C(Cn2cc(CN3CCNCC3)nn2)C(=O)c2ccccc2C1=O; target or system = Schistosoma mansoni; test system = adult worms; setting = 10 µM, 24 h; endpoint = killing; result = 43.5%
Compound = CCOC(=O)[C@H](CCc1ccccc1)N[C@H]1CS[C@H](c2cccs2)CN(CC(=O)O)C1=O; target or system = Nedd8-cullin1 interaction; test = neddylation, AlphaScreen; setting = 100 µM; endpoint = inhibition; result = 84.4%
Compound = COc1ccc(-c2cc(=O)c3c(O)cc(O)cc3o2)cc1; target or system = ESR2; test = array formation, agonist; test system = GFP-ERβ PRL-HeLa; setting = 1 h; endpoint = EC50; result = 955 nM
Compound = COc1ccc(Nc2cnnc3ccc(-c4cnc(N5CCN(C)CC5)nc4)cc23)cc1Cl; target or system = Schistosoma mansoni; test system = adult worms; setting = 10 µM, 5 h; how to read = direction not given; endpoint = phenotypic severity score; result = 0
Compound = O=C(O)CNC(=O)Cc1ccccc1; test system = ventricular cardiomyocytes, C57BL/6 mouse; setting = dose not given, 0.632 s; endpoint = sarcomere length; result = 1.7 µm
Compound = CC[C@H](C)C(=O)O[C@H]1C[C@H](O)C=C2C=C[C@H](C)[C@H](CC[C@@H](O)C[C@@H](O)CC(=O)O)[C@H]21; target or system = Nedd8-cullin1 interaction; test = neddylation, AlphaScreen; setting = 100 µM; endpoint = inhibition; result = 23.8%
Compound = O=c1c(-c2ccc(O[C@@H]3O[C@H](CO)[C@@H](O)[C@H](O)[C@H]3O)cc2)coc2cc(O)cc(O)c12; target or system = ESR2; test = array formation, agonist; test system = GFP-ERβ PRL-HeLa; setting = 1 h; endpoint = EC50; result = 1150 nM
Compound = OC(CCN1CCCCC1)(c1ccccc1)C1CC2C=CC1C2 (centres unmarked); test = resting-state EEG; test system = healthy elderly humans; setting = oral, 4 mg, eyes open, LS mean; how to read = reference: baseline; endpoint = change in EEG Alpha2-power Pz-O1; result = 24.9%
Compound = CC1=C(Cn2cnc([N+](=O)[O-])n2)C(=O)c2ccccc2C1=O; target or system = Schistosoma mansoni; test system = adult worms; setting = 10 µM, 72 h; endpoint = killing; result = 48.1%
Compound = COc1ccccc1N1CCN(CCCNc2cc(=O)n(C)c(=O)n2C)CC1; target or system = Nedd8-cullin1 interaction; test = neddylation, AlphaScreen; setting = 100 µM; endpoint = inhibition; result = 23.5%
Compound = CC(C)NCC(O)c1ccc(O)c(O)c1 (centres unmarked); test system = ventricular cardiomyocytes, C57BL/6 mouse; setting = dose not given, 0.52 s; endpoint = sarcomere length; result = 1.5 µm
Compound = CC1=C(Cn2cc(CNC(=O)OC(C)(C)C)nn2)C(=O)c2ccccc2C1=O; target or system = Schistosoma mansoni; test system = adult worms; setting = 25 µM, 72 h; endpoint = killing; result = 55.5%

A few entries again:
Compound = CC1=C(Cn2cc(CN)nn2)C(=O)c2ccccc2C1=O; target or system = Schistosoma mansoni; test system = adult worms; setting = 10 µM, 72 h; endpoint = killing; result = 45.4%
